{"data": "Measurements of several laboratories", "note": "Parts stem from different laboratories: compare values within a part only.", "sequence of UniProt O95382 (whole entry, looked up)": "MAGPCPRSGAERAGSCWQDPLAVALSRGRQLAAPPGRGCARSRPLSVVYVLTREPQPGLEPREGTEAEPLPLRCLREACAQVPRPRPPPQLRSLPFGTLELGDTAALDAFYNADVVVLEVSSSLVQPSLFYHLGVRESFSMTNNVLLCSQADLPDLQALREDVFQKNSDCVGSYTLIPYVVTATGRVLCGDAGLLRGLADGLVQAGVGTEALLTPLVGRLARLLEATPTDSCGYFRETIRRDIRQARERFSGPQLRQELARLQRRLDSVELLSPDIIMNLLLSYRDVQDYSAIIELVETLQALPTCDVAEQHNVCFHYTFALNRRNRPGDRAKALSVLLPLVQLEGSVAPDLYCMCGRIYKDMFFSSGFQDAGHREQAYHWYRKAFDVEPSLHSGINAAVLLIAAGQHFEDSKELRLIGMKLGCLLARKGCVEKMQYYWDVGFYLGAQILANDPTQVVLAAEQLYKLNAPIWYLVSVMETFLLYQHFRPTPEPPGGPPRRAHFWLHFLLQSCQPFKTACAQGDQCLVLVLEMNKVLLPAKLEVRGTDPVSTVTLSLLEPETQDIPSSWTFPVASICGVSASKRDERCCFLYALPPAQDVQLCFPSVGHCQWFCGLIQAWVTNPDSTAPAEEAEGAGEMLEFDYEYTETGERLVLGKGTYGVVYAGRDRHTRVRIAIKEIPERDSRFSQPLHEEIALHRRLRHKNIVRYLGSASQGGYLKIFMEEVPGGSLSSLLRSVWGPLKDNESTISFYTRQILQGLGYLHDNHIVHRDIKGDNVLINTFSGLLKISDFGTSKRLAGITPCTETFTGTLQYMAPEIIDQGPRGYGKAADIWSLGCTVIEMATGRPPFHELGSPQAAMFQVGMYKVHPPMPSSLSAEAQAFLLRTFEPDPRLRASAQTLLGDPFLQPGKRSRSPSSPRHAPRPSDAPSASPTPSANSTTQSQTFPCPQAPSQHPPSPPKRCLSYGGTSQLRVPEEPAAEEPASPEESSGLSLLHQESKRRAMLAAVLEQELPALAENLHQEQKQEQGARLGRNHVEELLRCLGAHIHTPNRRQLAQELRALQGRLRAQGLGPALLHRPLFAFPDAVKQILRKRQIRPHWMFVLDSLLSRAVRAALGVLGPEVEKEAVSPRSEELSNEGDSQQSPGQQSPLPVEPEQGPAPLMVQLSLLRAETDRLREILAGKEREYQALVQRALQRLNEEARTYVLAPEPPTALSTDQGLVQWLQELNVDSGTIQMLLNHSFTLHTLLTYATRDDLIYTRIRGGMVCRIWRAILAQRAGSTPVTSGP", "sequence of UniProt Q15349 (whole entry, looked up)": "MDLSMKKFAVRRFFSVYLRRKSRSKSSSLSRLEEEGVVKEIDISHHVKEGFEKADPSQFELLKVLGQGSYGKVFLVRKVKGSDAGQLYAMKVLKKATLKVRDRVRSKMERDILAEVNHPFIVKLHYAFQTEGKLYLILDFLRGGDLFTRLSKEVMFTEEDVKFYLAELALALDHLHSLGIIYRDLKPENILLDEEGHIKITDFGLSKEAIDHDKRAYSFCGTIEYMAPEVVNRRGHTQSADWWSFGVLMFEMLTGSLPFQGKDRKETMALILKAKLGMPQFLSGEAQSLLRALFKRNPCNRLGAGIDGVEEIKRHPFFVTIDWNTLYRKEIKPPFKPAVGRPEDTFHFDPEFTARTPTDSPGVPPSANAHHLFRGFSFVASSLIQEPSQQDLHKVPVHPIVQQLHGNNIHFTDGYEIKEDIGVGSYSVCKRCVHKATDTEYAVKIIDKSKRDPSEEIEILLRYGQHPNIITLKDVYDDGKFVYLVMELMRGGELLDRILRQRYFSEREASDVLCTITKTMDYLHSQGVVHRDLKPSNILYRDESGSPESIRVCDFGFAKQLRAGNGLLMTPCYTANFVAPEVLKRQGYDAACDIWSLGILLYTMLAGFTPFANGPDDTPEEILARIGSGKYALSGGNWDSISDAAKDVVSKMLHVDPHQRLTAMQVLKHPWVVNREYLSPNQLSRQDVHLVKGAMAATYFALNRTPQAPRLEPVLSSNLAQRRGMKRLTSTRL", "sequence of UniProt Q99640 (whole entry, looked up)": "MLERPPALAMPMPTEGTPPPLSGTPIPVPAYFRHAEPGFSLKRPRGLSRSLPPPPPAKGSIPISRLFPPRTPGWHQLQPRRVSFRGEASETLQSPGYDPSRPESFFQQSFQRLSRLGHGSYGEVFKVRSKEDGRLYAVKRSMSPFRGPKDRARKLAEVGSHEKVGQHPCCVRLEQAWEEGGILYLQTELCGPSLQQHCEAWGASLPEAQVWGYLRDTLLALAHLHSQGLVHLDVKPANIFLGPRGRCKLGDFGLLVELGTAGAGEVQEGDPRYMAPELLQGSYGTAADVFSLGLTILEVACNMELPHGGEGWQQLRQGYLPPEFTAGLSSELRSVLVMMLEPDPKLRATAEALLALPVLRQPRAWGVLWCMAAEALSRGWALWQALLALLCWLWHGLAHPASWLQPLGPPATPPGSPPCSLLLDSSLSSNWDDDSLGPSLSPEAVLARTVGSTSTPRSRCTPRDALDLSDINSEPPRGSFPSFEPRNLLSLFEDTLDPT", "sequence of UniProt O14730 (whole entry, looked up)": "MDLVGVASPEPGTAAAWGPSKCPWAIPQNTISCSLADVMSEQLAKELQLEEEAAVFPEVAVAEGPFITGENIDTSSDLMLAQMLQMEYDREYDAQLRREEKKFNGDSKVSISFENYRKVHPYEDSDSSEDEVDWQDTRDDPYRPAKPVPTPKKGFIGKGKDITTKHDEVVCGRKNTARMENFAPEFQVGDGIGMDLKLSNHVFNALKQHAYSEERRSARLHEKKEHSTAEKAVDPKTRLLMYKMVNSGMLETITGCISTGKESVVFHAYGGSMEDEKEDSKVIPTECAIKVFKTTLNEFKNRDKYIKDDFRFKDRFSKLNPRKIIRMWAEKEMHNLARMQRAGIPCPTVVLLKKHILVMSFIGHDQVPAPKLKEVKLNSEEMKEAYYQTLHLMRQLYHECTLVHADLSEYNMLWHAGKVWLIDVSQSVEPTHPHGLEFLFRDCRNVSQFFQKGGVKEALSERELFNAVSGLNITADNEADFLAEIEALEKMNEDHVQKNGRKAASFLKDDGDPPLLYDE", "sequence of UniProt P15735 (whole entry, looked up)": "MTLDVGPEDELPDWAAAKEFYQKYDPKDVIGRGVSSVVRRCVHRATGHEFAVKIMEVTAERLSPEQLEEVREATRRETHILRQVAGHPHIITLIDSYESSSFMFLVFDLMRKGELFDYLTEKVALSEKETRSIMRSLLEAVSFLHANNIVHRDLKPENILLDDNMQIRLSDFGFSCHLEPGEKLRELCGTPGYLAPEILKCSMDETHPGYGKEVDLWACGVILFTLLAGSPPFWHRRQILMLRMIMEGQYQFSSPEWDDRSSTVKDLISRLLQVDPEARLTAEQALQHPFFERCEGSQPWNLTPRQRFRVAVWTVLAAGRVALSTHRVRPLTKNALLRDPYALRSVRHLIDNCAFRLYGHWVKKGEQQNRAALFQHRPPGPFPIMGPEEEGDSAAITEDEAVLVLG", "sequence of UniProt P53667 (whole entry, looked up)": "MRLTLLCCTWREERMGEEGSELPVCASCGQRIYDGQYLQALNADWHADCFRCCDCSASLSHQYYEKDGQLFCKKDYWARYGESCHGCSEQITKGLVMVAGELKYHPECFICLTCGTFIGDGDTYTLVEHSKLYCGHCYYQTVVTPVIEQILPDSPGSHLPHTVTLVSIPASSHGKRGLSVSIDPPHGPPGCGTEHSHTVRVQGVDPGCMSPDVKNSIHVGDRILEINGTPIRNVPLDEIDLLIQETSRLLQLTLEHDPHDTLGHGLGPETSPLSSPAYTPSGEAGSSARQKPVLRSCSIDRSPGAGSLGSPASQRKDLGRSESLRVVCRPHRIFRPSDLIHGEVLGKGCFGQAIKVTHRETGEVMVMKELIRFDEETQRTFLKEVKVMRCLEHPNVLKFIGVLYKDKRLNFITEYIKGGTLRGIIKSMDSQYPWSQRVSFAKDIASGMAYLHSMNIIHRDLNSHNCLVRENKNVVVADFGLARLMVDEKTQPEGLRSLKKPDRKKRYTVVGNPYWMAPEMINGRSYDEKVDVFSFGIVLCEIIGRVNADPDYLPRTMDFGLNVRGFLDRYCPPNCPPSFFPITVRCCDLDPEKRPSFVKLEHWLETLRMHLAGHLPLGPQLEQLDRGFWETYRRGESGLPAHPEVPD", "sequence of UniProt P49137 (whole entry, looked up)": "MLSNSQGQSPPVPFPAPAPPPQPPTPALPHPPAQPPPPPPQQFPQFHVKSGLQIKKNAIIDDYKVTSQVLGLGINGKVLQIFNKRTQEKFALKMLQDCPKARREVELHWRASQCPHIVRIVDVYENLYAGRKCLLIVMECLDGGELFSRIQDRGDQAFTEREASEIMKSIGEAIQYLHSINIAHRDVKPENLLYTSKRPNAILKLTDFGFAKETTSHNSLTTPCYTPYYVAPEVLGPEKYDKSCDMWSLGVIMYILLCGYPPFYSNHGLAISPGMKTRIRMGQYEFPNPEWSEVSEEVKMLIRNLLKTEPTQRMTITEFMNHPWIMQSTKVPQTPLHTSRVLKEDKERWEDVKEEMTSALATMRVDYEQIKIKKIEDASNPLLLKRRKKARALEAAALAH"}
{"data": "Set 1", "species": "human", "sample": "microsomes or S9", "tested at": "2 µM", "time": "0.5 h"}
{"Structure (SMILES)": "[O-][S+](Cc1ccn(Cc2ccccc2Cl)n1)c1nc2cc(Cl)ccc2[nH]1 (stereo not drawn)", "remaining compound": "21.9%"}
{"Structure (SMILES)": "C/C=C/Cn1c(C(=O)c2cc(C)cc(C)c2)c(CC)c(NCCO)nc1=O", "remaining compound": "35.4%"}
{"Structure (SMILES)": "C1=Cn2nc(/C=C/c3cccs3)nc2-c2ccccc2O1", "remaining compound": "25.1%"}
{"Structure (SMILES)": "CC1CCc2c(sc3ncnc(NC(c4nnc5n4CCC5)C(C)C)c23)C1 (stereo not drawn)", "remaining compound": "11.2%"}
{"Structure (SMILES)": "CC(C)COC(C)C(=O)NCCNC(=O)C(C)C (stereo not drawn)", "remaining compound": "88.7%"}
{"data": "Set 2", "target": "Calcium/calmodulin-dependent protein kinase kinase 1 (CAMKK1, Homo sapiens, UniProt Q8N5S9)", "observed": "enzyme activity", "mode": "inhibitor", "tested at": "0.5 µM", "relative to": "control", "sequence of UniProt Q8N5S9 (whole entry, looked up)": "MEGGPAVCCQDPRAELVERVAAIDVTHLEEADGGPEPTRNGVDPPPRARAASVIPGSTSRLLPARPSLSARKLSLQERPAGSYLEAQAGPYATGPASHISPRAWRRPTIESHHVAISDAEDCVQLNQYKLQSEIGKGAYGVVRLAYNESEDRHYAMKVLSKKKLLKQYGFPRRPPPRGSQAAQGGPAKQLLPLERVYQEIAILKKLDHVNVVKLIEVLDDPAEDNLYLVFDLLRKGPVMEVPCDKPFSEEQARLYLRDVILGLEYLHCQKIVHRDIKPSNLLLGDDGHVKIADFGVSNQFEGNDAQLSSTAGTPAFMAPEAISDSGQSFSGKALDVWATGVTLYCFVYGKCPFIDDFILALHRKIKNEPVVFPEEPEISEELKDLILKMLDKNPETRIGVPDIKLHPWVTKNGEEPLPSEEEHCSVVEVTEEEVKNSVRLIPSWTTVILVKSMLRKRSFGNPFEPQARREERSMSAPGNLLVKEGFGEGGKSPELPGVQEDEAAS"}
{"SMILES": "Nc1cccc(-c2cc3c(Oc4cccc(O)c4)ncnc3[nH]2)c1", "remaining activity": "113%"}
{"SMILES": "Cc1cn(-c2cc(NC(=O)c3ccc(C)c(Nc4nccc(-c5cccnc5)n4)c3)cc(C(F)(F)F)c2)cn1", "remaining activity": "91.1%"}
{"SMILES": "Cc1cc2ncc(-c3ccccc3)nc2cc1C", "remaining activity": "98%"}
{"SMILES": "COc1cc2ncnc(Nc3ccc(O)c(Br)c3)c2cc1OC", "remaining activity": "95.8%"}
{"SMILES": "COc1cc2ncnc(Nc3cccc(Cl)c3)c2cc1OC", "remaining activity": "92.2%"}
{"SMILES": "N#Cc1c(NC(=O)c2cccc3ccccc23)sc2c1CCCC2", "remaining activity": "109%"}
{"SMILES": "CCN(CC)CCNC(=O)c1c(C)[nH]c(/C=C2\\C(=O)Nc3ccc(Cl)cc32)c1C", "remaining activity": "47.7%"}
{"data": "Set 3", "Compound": "COc1ccc2c(c1)O[C@@H](c1ccc(OC)c(OC)c1)C[C@H]2NC(=O)C1(c2ccc3c(c2)OC(F)(F)O3)CC1", "method": "competition with immobilised ligand", "tested at": "1 µM"}
{"target": "LIM domain kinase 2 (LIMK2, Homo sapiens, UniProt P53671)", "observed": "cell-free assay", "remaining binding [%]": 100}
{"target": "ACVRL1 (Homo sapiens, UniProt P37023)", "observed": "binding", "remaining binding [%]": 97}
{"target": "CAMK2A (Homo sapiens, UniProt Q9UQM7)", "observed": "cell-free assay", "remaining binding [%]": 98}
{"target": "PKMYT1 (Homo sapiens, UniProt Q99640)", "observed": "cell-free assay", "remaining binding [%]": 90}
{"target": "PHKG2 (Homo sapiens, UniProt P15735)", "observed": "cell-free assay", "remaining binding [%]": 82}
{"target": "RIOK3 (Homo sapiens, UniProt O14730)", "observed": "cell-free assay", "remaining binding [%]": 100}
{"target": "LIM domain kinase 1 (LIMK1, Homo sapiens, UniProt P53667)", "observed": "cell-free assay", "remaining binding [%]": 100}
{"target": "MAP3K6 (Homo sapiens, UniProt O95382)", "observed": "cell-free assay", "remaining binding [%]": 81}
{"target": "CDC42BPB (Homo sapiens, UniProt Q9Y5S2)", "observed": "cell-free assay", "remaining binding [%]": 100}
{"target": "Ribosomal protein S6 kinase alpha-2, C-terminal kinase domain (RPS6KA2, Homo sapiens, UniProt Q15349)", "observed": "cell-free assay", "remaining binding [%]": 95}
{"target": "MAPKAPK2 (Homo sapiens, UniProt P49137)", "observed": "cell-free assay", "remaining binding [%]": 100}
{"target": "FLT3 (Homo sapiens, UniProt P36888, R834Q)", "observed": "cell-free assay", "remaining binding [%]": 100}
{"target": "GSK3B (Homo sapiens, UniProt P49841)", "observed": "cell-free assay", "remaining binding [%]": 92}
{"target": "CDK4 (Homo sapiens, UniProt P11802)", "observed": "cell-free assay", "remaining binding [%]": 91}
{"data": "Set 4", "cell line": "A-375", "tested at": "100 µM", "time": "36 h"}
{"Structure (SMILES)": "COc1ccc2cccc(CCNC(C)=O)c2c1", "viability [%]": 82.3}
{"Structure (SMILES)": "CCCC(=O)O[C@]1(C(=O)CO)CC[C@H]2[C@@H]3CCC4=CC(=O)CC[C@]4(C)[C@H]3[C@@H](O)C[C@@]21C", "viability [%]": 106}
{"Structure (SMILES)": "Clc1cccc(Cl)c1N=C1NCCN1", "viability [%]": 112}
{"Structure (SMILES)": "CCCC(C(=O)OCCN(CC)CC)(c1ccccc1)c1ccccc1", "viability [%]": 0.791}
{"Structure (SMILES)": "CN(C)CCC=C1c2ccccc2C=Cc2ccccc21", "viability [%]": -0.0961}
{"Structure (SMILES)": "CCN(CCCCOC(=O)c1ccc(OC)c(OC)c1)C(C)Cc1ccc(OC)cc1 (stereo not drawn)", "viability [%]": 56.4}
{"Structure (SMILES)": "CC(COc1ccccc1)NC(C)C(O)c1ccc(O)cc1 (stereo not drawn)", "viability [%]": 113}
{"Structure (SMILES)": "CC1(C)CCC(CN2CCN(c3ccc(C(=O)NS(=O)(=O)c4ccc(NCC5CCOCC5)c([N+](=O)[O-])c4)c(Oc4cnc5[nH]ccc5c4)c3)CC2)=C(c2ccc(Cl)cc2)C1", "viability [%]": 25.3}
{"Structure (SMILES)": "O=C(/C=C/c1ccc(O)cc1)c1ccc(O)cc1O", "viability [%]": 43.1}
{"Structure (SMILES)": "O=C1[C@H](CC[C@H](O)c2ccc(F)cc2)[C@@H](c2ccc(O)cc2)N1c1ccc(F)cc1", "viability [%]": 2.5}
{"Structure (SMILES)": "CC(C)C(=O)Nc1ccc([N+](=O)[O-])c(C(F)(F)F)c1", "viability [%]": 5.65}
{"Structure (SMILES)": "COc1ccc([C@@H]2CC(=O)c3c(O)cc(O[C@@H]4O[C@H](CO[C@@H]5O[C@@H](C)[C@H](O)[C@@H](O)[C@H]5O)[C@@H](O)[C@H](O)[C@H]4O)cc3O2)cc1OC", "viability [%]": 121}
{"data": "Other studies, line by line"}
{"SMILES": "CCC[C@@H]1NC(=O)CSC[C@@H](C(=O)OCC)N(C)C(=O)[C@H](CC(C)C)NC(=O)[C@@H](C)N(C)C(=O)[C@@H](CC(C)C)NC(=O)[C@H](C)N(C)C(=O)[C@H]2CCCN2C(=O)[C@@H](CC(C)C)NC(=O)CN(C)C1=O", "sample": "hydrocarbon/water", "endpoint": "logD", "value": 0.302}
